Results from different studies.
Lines come from different studies, so protocols differ.
Organism: Candida albicans

SMILES | assay | test system | setting | MIC
CCCCCOc1ccc(-c2ccc(-c3ccc(C(=O)N[C@H]4C[C@@H](O)[C@@H](OCC[N+](C)(C)C)NC(=O)[C@@H]5[C@@H](O)[C@@H](C)CN5C(=O)[C@H]([C@@H](C)O)NC(=O)[C@H]([C@H](O)[C@@H](O)c5ccc(O)cc5)NC(=O)[C@@H]5C[C@@H](O)CN5C(=O)[C@H]([C@@H](C)O)NC4=O)cc3)cc2)cc1 | CLSI broth microdilution | 98-17 |  | 0.06 µg/mL
C[C@@H]1[C@H](O)[C@@H](C)/C=C/C=C/C=C/C=C/C=C/C=C/C=C/[C@H](O[C@@H]2O[C@H](C)[C@@H](O)[C@H](N)[C@@H]2O)C[C@@H]2O[C@](O)(C[C@@H](O)C[C@@H](O)[C@H](O)CC[C@@H](O)C[C@@H](O)CC(=O)O[C@H]1C)C[C@H](O)[C@H]2C(=O)O | broth microdilution | ATCC 90029, RPMI-MOPS medium | 24 h, pH 7.0, 35 °C, MIC at 90% growth inhibition, together with: potentiator 0 µg/mL | 1 µg/mL
CN(C/C=C/C#CC(C)(C)C)Cc1cccc2ccccc12 | broth microdilution | BNCC 186382 |  | 4 µg/mL
CC[C@H](C)[C@H](NC(=O)CN)C(=O)N[C@@H](CC(C)C)C(=O)N[C@@H](CC(=O)O)C(=O)N[C@@H](C)C(=O)N[C@H](C(=O)N[C@@H](CCCCN)C(=O)N[C@@H](C)C(=O)N[C@H](C(=O)N[C@@H](C)C(=O)N[C@@H](CCCCN)C(=O)N[C@@H](C)C(=O)N[C@@H](C)C(=O)NCC(N)=O)[C@@H](C)CC)[C@@H](C)CC |  | ATCC 90029, RPMI MOPS | 24 h, pH 7.0, 33 °C | 256 µg/mL
C=C1C(=O)O[C@@H](CCCCCCCCCCCCC)[C@@H]1C(=O)O |  | CAF2-1 |  | 64 µg/mL
OC(Cn1cncn1)(Cn1cncn1)c1ccc(F)cc1F | broth microdilution | 322 | 24 h, compound alone | 1 µg/mL
C[C@@H]1[C@H](O)[C@@H](C)/C=C/C=C/C=C/C=C/C=C/C=C/C=C/[C@H](O[C@@H]2O[C@H](C)[C@@H](O)[C@H](N)[C@@H]2O)C[C@@H]2O[C@](O)(C[C@@H](O)C[C@@H](O)[C@H](O)CC[C@@H](O)C[C@@H](O)CC(=O)O[C@H]1C)C[C@H](O)[C@H]2C(=O)O |  | SP3903, RPMI MOPS | 48 h, 37 °C | 0.5 µM
CCOC(=O)CON |  | CAF2-1 |  | 32 µg/mL
OC(Cn1cncn1)(Cn1cncn1)c1ccc(F)cc1F |  | alveolar fluid isolate, RPMI MOPS | 48 h, 37 °C | 2 µM
O=C1C(Br)=C(Br)C(=O)c2ccccc21 |  | ATCC 60193 | 24 h, together with: sorbitol 0.8 M | 6.25 µg/mL

Excerpt of the above:
SMILES | assay | test system | setting | MIC
OC(Cn1cncn1)(Cn1cncn1)c1ccc(F)cc1F | broth microdilution | 322 | 24 h, compound alone | 1 µg/mL
